Experimental data pooled from the literature.
Numbered parts are unrelated; each lists some results of a single study. ± gives the spread as reported.
Chain of UniProt O75914 (whole entry, looked up): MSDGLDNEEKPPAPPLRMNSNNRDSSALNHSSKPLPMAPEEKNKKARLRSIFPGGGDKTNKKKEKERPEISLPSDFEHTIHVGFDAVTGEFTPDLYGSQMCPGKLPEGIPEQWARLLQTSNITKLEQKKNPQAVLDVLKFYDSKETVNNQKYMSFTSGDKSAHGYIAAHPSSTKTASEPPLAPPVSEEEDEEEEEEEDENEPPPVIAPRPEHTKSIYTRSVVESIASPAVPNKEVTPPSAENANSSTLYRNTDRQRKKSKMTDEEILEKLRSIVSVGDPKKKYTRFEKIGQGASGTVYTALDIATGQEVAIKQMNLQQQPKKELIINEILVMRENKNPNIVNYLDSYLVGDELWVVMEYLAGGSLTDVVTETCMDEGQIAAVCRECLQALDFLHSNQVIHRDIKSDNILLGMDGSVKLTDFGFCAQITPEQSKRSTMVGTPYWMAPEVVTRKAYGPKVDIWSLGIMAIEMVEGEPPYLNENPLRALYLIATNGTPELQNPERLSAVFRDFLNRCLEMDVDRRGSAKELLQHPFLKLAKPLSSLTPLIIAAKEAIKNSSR
Chain of UniProt Q6P2M8 (whole entry, looked up): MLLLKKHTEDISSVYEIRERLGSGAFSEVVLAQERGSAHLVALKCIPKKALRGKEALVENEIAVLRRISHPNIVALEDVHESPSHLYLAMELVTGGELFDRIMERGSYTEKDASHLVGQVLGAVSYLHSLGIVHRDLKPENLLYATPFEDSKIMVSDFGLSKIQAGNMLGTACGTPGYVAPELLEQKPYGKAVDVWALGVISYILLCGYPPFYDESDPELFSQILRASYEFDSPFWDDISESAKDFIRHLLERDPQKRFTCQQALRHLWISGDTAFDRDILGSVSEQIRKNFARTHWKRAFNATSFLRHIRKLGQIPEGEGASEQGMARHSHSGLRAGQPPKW
Chain of UniProt P14616 (whole entry, looked up): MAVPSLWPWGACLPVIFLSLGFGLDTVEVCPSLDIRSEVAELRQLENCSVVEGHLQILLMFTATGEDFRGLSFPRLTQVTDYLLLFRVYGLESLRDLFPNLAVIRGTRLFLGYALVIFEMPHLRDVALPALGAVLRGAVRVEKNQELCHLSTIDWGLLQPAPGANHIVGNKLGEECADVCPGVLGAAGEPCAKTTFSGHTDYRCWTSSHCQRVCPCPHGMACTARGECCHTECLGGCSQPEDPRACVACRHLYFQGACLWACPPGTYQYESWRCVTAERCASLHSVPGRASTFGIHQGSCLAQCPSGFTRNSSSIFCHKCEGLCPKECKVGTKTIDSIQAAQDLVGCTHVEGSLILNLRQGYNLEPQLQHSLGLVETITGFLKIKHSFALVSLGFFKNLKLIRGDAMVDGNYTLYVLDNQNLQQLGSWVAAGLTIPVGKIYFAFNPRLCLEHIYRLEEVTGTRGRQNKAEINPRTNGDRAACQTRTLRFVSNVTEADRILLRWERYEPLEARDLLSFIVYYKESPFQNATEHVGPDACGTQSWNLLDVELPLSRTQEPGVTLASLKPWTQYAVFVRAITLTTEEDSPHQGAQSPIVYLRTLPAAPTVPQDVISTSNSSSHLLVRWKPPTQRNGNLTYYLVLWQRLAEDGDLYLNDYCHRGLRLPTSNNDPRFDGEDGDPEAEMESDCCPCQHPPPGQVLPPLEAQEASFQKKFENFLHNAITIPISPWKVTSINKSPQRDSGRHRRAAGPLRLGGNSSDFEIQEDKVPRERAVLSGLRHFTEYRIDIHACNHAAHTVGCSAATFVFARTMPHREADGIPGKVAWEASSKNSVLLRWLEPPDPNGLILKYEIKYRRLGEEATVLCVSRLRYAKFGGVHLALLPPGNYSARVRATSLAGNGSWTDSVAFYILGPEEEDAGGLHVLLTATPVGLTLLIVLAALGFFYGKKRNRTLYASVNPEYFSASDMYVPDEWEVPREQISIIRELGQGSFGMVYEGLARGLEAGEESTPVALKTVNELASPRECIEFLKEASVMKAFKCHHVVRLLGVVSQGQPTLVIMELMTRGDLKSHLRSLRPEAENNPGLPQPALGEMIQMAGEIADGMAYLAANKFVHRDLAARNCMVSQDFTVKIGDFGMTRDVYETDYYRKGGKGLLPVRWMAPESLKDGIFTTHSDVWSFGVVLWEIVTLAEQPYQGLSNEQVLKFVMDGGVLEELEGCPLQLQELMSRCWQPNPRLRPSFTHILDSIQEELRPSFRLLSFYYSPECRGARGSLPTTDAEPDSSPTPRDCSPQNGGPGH
Chain of UniProt P35968 (whole entry, looked up): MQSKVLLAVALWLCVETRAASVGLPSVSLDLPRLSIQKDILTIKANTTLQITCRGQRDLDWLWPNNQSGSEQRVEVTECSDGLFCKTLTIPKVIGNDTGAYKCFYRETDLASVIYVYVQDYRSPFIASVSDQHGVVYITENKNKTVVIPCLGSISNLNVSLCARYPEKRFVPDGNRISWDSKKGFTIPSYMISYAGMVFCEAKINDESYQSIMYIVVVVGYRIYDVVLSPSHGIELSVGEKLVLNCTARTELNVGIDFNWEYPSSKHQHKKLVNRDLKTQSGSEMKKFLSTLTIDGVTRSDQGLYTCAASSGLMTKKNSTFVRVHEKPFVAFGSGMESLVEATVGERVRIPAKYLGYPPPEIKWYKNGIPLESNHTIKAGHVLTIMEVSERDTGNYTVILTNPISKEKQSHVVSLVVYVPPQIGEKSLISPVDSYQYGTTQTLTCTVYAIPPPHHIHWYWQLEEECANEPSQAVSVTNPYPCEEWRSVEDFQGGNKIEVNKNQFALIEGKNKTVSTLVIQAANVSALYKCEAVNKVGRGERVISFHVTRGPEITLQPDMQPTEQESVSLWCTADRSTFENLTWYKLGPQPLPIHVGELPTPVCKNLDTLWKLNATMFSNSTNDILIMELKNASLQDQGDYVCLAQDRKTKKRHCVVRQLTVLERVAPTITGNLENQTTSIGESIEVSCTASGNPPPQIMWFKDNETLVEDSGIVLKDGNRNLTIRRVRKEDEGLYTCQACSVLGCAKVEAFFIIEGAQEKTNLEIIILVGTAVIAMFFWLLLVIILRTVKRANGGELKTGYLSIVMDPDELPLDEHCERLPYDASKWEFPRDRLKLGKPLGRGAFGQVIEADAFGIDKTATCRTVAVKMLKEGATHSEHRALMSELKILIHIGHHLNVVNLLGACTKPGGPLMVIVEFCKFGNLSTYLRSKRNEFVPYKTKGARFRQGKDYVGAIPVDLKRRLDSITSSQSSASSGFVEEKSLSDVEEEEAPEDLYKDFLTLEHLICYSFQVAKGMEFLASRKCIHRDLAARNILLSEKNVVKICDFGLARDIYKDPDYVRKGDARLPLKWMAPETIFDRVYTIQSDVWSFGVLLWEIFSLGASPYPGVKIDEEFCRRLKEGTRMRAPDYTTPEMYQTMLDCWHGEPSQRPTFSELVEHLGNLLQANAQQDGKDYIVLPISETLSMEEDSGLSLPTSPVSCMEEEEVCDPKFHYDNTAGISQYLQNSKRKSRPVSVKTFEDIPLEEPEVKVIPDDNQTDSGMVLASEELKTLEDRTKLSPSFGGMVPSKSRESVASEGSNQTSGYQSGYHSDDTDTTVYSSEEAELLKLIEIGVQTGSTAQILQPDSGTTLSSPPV
Chain of UniProt Q13464 (whole entry, looked up): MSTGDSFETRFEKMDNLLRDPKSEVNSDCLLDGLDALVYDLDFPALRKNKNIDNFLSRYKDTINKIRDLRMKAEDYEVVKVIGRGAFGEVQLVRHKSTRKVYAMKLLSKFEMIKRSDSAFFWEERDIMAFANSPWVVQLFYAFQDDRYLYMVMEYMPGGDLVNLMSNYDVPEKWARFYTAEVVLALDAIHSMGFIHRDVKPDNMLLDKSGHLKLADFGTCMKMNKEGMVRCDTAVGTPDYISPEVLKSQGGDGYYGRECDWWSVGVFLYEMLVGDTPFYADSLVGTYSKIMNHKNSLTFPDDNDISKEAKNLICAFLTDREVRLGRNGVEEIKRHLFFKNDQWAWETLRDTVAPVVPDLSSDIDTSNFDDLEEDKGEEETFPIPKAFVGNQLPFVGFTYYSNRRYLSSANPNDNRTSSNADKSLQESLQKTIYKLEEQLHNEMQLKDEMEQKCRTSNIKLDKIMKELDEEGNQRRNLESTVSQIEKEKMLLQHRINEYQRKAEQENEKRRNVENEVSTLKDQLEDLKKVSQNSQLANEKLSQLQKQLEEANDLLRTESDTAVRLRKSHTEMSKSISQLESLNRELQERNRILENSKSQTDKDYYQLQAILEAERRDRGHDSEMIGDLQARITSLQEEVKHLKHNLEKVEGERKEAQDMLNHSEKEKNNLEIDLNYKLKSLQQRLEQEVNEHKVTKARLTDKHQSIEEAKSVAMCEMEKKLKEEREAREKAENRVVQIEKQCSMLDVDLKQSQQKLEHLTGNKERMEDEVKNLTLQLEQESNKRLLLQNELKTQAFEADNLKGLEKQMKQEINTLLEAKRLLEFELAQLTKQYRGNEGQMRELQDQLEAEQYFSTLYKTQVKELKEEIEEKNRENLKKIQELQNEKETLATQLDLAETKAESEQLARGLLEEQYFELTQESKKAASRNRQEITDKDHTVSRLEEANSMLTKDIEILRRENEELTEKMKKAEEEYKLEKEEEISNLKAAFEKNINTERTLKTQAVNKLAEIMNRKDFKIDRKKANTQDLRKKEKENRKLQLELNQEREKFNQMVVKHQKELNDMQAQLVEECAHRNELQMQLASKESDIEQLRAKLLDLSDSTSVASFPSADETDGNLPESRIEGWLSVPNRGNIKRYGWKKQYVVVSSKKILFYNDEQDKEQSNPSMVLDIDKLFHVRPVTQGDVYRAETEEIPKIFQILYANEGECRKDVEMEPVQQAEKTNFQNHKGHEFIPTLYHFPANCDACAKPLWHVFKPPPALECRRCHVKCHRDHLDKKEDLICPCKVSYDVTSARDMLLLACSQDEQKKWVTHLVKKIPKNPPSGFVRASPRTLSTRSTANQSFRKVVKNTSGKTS

Sample 1 — cell line: A-375; tested at: 100 µM; time: 36 h
SMILES | viability [%]
CC(C)(Oc1ccc(Cl)cc1)C(=O)O | 116
O=C(O)CCc1nc2ccccc2[nH]1 | 127
O=C1C(CC[S+]([O-])c2ccccc2)C(=O)N(c2ccccc2)N1c1ccccc1 (stereo not shown) | 104
NC(=O)c1cc[n+](CC2=C(C(=O)O)N3C(=O)[C@@H](NC(=O)[C@@H](c4ccccc4)S(=O)(=O)[O-])[C@H]3SC2)cc1 | 95.5
NC(=O)N/N=C/c1ccc([N+](=O)[O-])o1 | 52.8
C=CC1=C(C(=O)O)N2C(=O)[C@@H](NC(=O)/C(=N\O)c3csc(N)n3)[C@H]2SC1 | 105
c1ccc(Cc2nc3ccccc3[nH]2)cc1 | 73.7
O=C(/C=C/C=C/c1ccc2c(c1)OCO2)N1CCCCC1 | 64.8

Sample 2 — Structure (SMILES): Cc1cc(Nc2nc(-c3ccccc3)nc3ccccc23)n[nH]1; read-out: enzyme activity; mode: inhibitor; tested at: 0.5 µM; reference: control
target | remaining activity
RPS6KA4 (Homo sapiens, UniProt O75676) | 108%
CLK3 (Homo sapiens, UniProt P49761) | 33.8%
GRK4 (Homo sapiens, UniProt P32298) | 92.1%
PAK3 (Homo sapiens, UniProt O75914) | 90.2%
PNCK (Homo sapiens, UniProt Q6P2M8) | 102%
AKT2 (Homo sapiens, UniProt P31751) | 127%
ROCK1 (Homo sapiens, UniProt Q13464) | 98.8%
Cyclin-dependent kinase 9, with cyclin K (CDK9, Homo sapiens, UniProt P50750) | 89.8%
MET (Homo sapiens, UniProt P08581) | 130%
KDR (Homo sapiens, UniProt P35968) | 36.5%
TXK (Homo sapiens, UniProt P42681) | 45.3%
MINK1 (Homo sapiens, UniProt Q8N4C8) | 35.6%
NEK3 (Homo sapiens, UniProt P51956) | 101%

Sample 3 — read-out: cell-free assay; technique: competition with immobilised ligand; tested at: 1 µM
Compound: CCC(=O)N[C@@H]1CC[C@H](C(=O)N(C)c2ccc(-c3nc4ccccc4o3)cc2)C1
target | remaining binding [%]
INSRR (Homo sapiens, UniProt P14616) | 100
SRMS (Homo sapiens, UniProt Q9H3Y6) | 84
PIM1 (Homo sapiens, UniProt P11309) | 100
RET (Homo sapiens, UniProt P07949, V804L) | 100
CDK16 (Homo sapiens, UniProt Q00536) | 100
PAK3 (Homo sapiens, UniProt O75914) | 98
RIPK2 (Homo sapiens, UniProt O43353) | 85
DAPK2 (Homo sapiens, UniProt Q9UIK4) | 100

Sample 4 — read-out: kinase activity
Structure (SMILES): COc1cc(C(=O)N2CCC(N3CCN(C)CC3)CC2)ccc1Nc1ncc2c(n1)N(C)c1ccccc1C(=O)N2C
target | conditions | remaining activity [%]
EF2K | 10 µM | 82 ± 3
CHK1 | 10 µM | 96 ± 12
JNK3 | 1 µM | 92 ± 9
MLK3 | 1 µM | 94 ± 6
CK1 | 1 µM | 73 ± 3
